Earlier results, collected from citations in different studies.
Compare with care: the assays were run in different laboratories. ± gives the spread as reported.
Cell line: A549

Cc1c(C#N)cccc1[C@@H](C)Nc1nnc(C)c2cnc(N3CCOCC3)cc12  IC50 (3D cell viability; 14 d): 135 ± 57.8 nM
Cc1ncccc1NC(=O)c1ccc2c(c1)CC[C@@H]1C[C@@](O)(C(F)(F)F)CC[C@@]21Cc1ccccc1  inhibition (TNF-alpha release; concentration not given): 60 to 80%
O=C(Nc1cccc(NC(=O)c2ccccn2)c1)Nc1ccc2ccccc2c1  IC50 (cell proliferation): 240 nM
COc1ccc(Cc2nccc3cc(OC)c(OC)cc23)cc1OC  IC50 (oxygen consumption rate): 15400 nM
CCN(CC)CCNC(=O)Nc1nc2ccc(-c3cnc(OC)c(NS(=O)(=O)c4ccc(F)cc4)c3)cc2s1  IC50 (cell growth; 72 h): 450 nM
C#Cc1cccc(Nc2ncnc3cc(OCCOC)c(OCCOC)cc23)c1  IC50: 13800 ± 2730 nM
O=C1c2ccncc2C(=O)c2c1[nH]c1ccccc21  minimum effective concentration (mitochondrial fission, inhibitor): 0.5 µM
COc1cc2c(Oc3ccc(NC(=O)c4nccc(-c5ccc(F)cc5)n4)cc3F)ccnc2cc1OCCCN1CCCC1  IC50 (cell growth; 72 h): 990 nM
Nc1cc(C(F)(F)F)c(-c2nc(N3CCOCC3)nc(N3CCOCC3)n2)cn1  GI50: 624 nM
